Experimental data from different studies.
A part holds a random share of what one study measured. Positions count from the first letter of the parent shown.

Sample 1
Target: CCND3, cyclin fold, Cln2 fusion (human)
Method: yeast growth competition, sequencing
Sample: yeast
Notes: weak parent motif
Baseline: not given
Direction: higher = stronger binding
Starting sequence: PKN2 docking peptide (human); DSTVTKLDFDLEP
| Substitution | normalised enrichment score |
| --- | --- |
| DSTVTKADFDLEP [L7A] | -0.0927 |
| DATVTKLDFDLEP [S2A] | -0.317 |
| DSTVTKLDFDLAP [E12A] | -0.31 |
| DSTVTKLAFDLEP [D8A] | -0.286 |
| DSTVTKLDFDLEA [P13A] | -0.273 |
| DSTVTKLDFALEP [D10A] | -0.409 |
| DSTVTKLDADLEP [F9A] | -0.132 |

Sample 2
Target: RNA binding protein fox-1 homolog 2, RRM domain, GST-SBP tag (RBFOX2, Homo sapiens, UniProt O43251-10, residues 100-194)
Method: RNA Bind-n-Seq
Form: RNA
Sample: in vitro
Concentration: 365 nM
Notes: natural RNA segment, single round, ends assumed
Baseline: no-protein control
Direction: higher = stronger binding
All sequences stand within: GGGAGUUCUACAGUCCGACGAUC … UGGAAUUCUCGGGUGCCAA
Target sequence (chain): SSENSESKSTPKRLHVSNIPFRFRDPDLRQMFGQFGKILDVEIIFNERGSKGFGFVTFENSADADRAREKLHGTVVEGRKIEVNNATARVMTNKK
| Oligonucleotide | RBNS enrichment (R) |
| --- | --- |
| CCUGCUUUUUAGGCCUGGAUAACAGUAUCACCAUCCUUAUUUACAGAAGGGUAAAACUGACUCUUAAUGAGAAAAGCUUUAUAAGUUCAAGGGCUGUAAAAUAUGAACUA | 0.306 |
| CAAGGUGGGGGCUGUGGCCAUGUGUGGCCGUGAUGUCGAUGAUACUCGUUUUCCCUGAUCCGUGGUGUUGCAGUCCGUUGUCACCAGCCUUGUUUCUAGUGUGUAUAUAU | 0.458 |
| ACCCCUGAAGAGAACACUUCCUGUUGGUCUGUCUCUUCCCACCUUCCAUCUGCACACACCCCCAAGGUAAGGGUACAGCCCGGCUGGCGGCCUCCUUGGGAACGUGUAGG | 0.289 |
| GGCUUGGAAUUCAACUCAGUUUAGCACCAAAGCCAGUGCUAUUAAGACCUGAAGUUCAACAGUGGAUUCCUUACCAAAUAGUUUUUAAAGUAUGCUCUAAGGAACAAUGU | 0.339 |
| UGAACCCUGUAUUGCUGGGGCCGGAAGGAGCCCCUGAGCCUAGCCCCUUCCCGUCUGCCCUGUGUCCUCACUGCGUGUGGGUAUGACCUCUGCCUGGUGGCUGGUGUAUC | 1.29 |
| AAUAUUACACAGUAAUGGUAAUUUAUAAAGGAGUGUAUAGUAGUAUACUGACUGCUAAGUGUACUAUACUGUUUGCUUUACUAAUCACCUAAUUCAUUGCAGUUCAUACU | 0.951 |
| AUGAAAUGGUCAUCACAUCUGACCUUGGUCAGUGGGGAGGGGAACUGGUAUCCUGCCAAGCCUGGUUGUAAUUUGUAACCAUUUUCUAUUUGUGCAAACUCUGUAAAUAU | 0.538 |
| GUGUAAUCUUUUACCUUUUUAAAAACCAAGAUAGAGUAUCUAUUAGAGUUUUACAUUGUUGAUGAUAGAUUAACAAUAAAGUGAUGUUCUGGUGGAGGUAGACUGAAAUU | 0.361 |
| GUGUAAUUUUUCUGUAUAGACAGGAGAAGAAAGAACUAUCUUCAUCUGAGAGAGGCUAAAAUGUUUUCAGCUAGGAACAAAUCUUCCUGGUCGAAAGUUAGUAGGAUAUG | 0.365 |
| UCAGUGGUCAUUCUUCUGCCUUCCAAAAUCUUAGUUUUAUAAAAGCAUUGUGUAUGACAGAGUGGCCUUGAAGAGACUGAAUAAUCAUUUUAUAAUAAUGUUGAAGGAAA | 1.32 |
| GAAUUGCGCCAGAUAGGUCAAUACCAAGCUUCUGAUUCCUCCUCACAUAUGAAAAGUGAAAGUUGUGAGUUGUUUUCCUCUUAUUUAAACAUUGGCCUAUUAUAAUCUGU | 0.571 |
| AAUACUAUAUUCCGUGUUUUGAGUGACAAGUUUCGAAAAAUAAAAACACUGUAUUUUUAAAAGGGAAAUGCACUUAAAUGAAAACAGUUAUUACAAAAGUUAAGAUUUAA | 0.452 |

Sample 3
Target: RING finger protein unkempt homolog, zinc fingers 1-6, GST-SBP tag (UNK, Homo sapiens, UniProt Q9C0B0, residues 30-357)
Method: RNA Bind-n-Seq
Form: RNA
Sample: in vitro
Concentration: not given
Notes: RNA with constant flanks, human-mouse chimeric sites, ends assumed
Baseline: input RNA pool
Direction: higher = stronger binding
All sequences stand within: GGGAGUUCUACAGUCCGACGAUC … CAACAGAGGAUUGAGCAUCA
Residues (chain): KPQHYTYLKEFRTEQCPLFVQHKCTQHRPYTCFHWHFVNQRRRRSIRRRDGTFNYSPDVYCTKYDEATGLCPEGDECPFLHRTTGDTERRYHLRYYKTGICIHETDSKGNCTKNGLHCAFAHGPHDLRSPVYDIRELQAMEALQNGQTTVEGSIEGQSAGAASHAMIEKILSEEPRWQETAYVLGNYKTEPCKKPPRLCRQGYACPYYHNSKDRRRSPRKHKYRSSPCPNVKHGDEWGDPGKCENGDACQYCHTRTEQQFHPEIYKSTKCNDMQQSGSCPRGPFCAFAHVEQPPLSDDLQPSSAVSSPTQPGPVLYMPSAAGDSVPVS
| Oligonucleotide | bound/input enrichment |
| --- | --- |
| CGGAGCCCUCCUCUCCCACAGGCCCAAGAUGUGACCCACCAGUGCCUUCUGUCUGCUUGUCAGCUCUGUCAAUCACGCCUGUCCUCUCACGCCCACACCAAGUGCCCAAAGUGGGGAGGG | 0.438 ratio |
| AAAUCAUGUGUGUCCAAUAUUGAAAGUGCUUUAUCUACACUCCAGUAUGUAAGCAGUAUAGUAGUUUCUUUAGAGAAUAGGUCAGCCAUUGUAAAGUAUAAUGCAAGCUUAGUCACUCCA | 4.95 ratio |
| GCUGAAAAUGAAGAAGAGGCAGCUGAUGUCUGGUACAACCUGGGGCACAUAGCUGUGGGAAUAGGAGAUACAAACUUGGCCCACCAAUGCUUCAGGCUGGCCCUGGUCCACAACAACCAC | 0.287 ratio |
| GCCACCAGAUCCCAGAAACAUGACCCUUGCUGCCUACAAAGAGAAGAUGAAGGAGCUCCCGCUGGUGUCCUUGUUCUGCUCUUGCUUCUUGUCUGAUCCCCUGAAUAAGUCGUCCUACAA | 0.226 ratio |
| AGCGUUCAGGAAUUCAUGACCUUUACAAGUCAACUGAUUGUGGAGCGCUCGGGGAAAGGCAGCAGAGCUUCUGUCAAAGAACAAGAGUAUCUUUGCCAUGUCUACGUCCGGAGCGACAGU | 0.0896 ratio |
| UUCAAAGAAAAGGGCAGCUGUGUCAUUUCAUAAGUAACUCUGGGGGAGGGAAAUUCUGUUCUUUUGUUUAAUUUUCCCCCAAAUGAAGCCAAAGUGUUUUUUAAGGAAGGAAGAAUGAAU | 0.15 ratio |
| AAAGCCCUUGAAGAAAAAAAAAACUCGAACAGAUUUGACAAGGGUAGCCAGCUUGGAGUCUAGCAAUUUGCCAAUGUGUUUACCAAUCUGGGGGCUUGUUUUUCUUUUCUUCUUUCAAAU | 0.767 ratio |
| UAAAUUAGCCAGCACCAUUUCUGUUUCUCCCUGGGCUGCGGAAAGCCAGAAGAUUUUAUCUAGCUUAUACAAGGCUGCUGGUGUUCCCUCUUUUUUUCCACGAGGGUGUUUUUGGCUGCA | 0.864 ratio |
| CUUAAUGUUAAUAUUUUUGAAUAAAUGAAGCUAAAAUGUCUGCUUUUGGUACAACACGCAUUAGCGAAAGGUUAAGUUUUGUUUUCCACUGAAGUACUAUUUAACAUACAUCUCAGAAAC | 0.463 ratio |
| CGGAGCCCUCCUCUCCCACAGGCCCAAGAUAUAACCCACCAGUGCCUUUUGUCUUCCUGUCAGCUCUGUCAAUCACGGCCCUGCCUUGUCCCUCUCACCAAGUGCCCAAAGUGGGGAGGG | 0.485 ratio |
| AUGGAACAUUUCGAUGCGUCACUCAGUACCUAUUUCAAGGCCUUCCUGGGCCCCCGAGAUACAAGAGUCAAAGGAUGGUUUCUUCUGGACAAUUAUAUCCCUACGUUUGUCUGUUCUGUU | 0.133 ratio |

Sample 4
Target: Interferon regulatory factor 7, full length, phosphomimetic (IRF7, Homo sapiens, UniProt Q92985, residues 1-503, S101K/S471D/S472D/S475D/S476D/S477D/S483D/S484D/S487D)
Method: protein-binding microarray
Form: double-stranded DNA, one strand shown
Sample: in vitro
Concentration: 250 nM
Notes: 60-bp whole probe
Added: salmon DNA 0.4 mg/ml
Baseline: random background probes
Direction: higher = stronger binding
All sequences stand within: GCCTAGCAC … GTCTTGATTCGCTTGACGCTGCTG
Target sequence (chain): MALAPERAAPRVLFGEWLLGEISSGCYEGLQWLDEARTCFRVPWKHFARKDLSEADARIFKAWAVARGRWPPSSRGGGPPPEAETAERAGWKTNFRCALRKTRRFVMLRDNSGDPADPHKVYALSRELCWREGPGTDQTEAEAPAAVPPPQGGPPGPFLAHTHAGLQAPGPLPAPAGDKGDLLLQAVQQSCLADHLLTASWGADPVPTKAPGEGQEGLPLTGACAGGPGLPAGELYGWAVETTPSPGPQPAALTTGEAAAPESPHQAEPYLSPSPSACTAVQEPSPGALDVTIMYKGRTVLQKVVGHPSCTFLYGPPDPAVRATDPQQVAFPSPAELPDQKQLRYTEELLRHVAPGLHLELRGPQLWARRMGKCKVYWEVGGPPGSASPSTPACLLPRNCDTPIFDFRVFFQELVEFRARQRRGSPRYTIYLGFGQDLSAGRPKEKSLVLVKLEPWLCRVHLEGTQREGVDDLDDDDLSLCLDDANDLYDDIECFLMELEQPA
| Oligonucleotide | log fluorescence [z-score] |
| --- | --- |
| TTCTCTTTTATTTTTTTTATGTGCTAG | 1.67 |
| GACGATTTCCTTTTCCTGACGTGCTAG | 1.67 |
| TTAGATTCCAGTTTCGATTGGTGCTAG | 10.8 |
| GACGGTTGCGGGTATCGGGACGTGCTA | -0.333 |
| GACGGATTCGGTATCGGGACGTGCTAG | 2.27 |
| GACGGTCTCCTCTTCCTGACGTGCTAG | 0.0105 |
| TTCACTATTGCTTCCTCTTTGTGCTAG | 0.43 |
| TTACAGCTATTTTTAGGATGGTGCTAG | -0.386 |
| AACGGTTCCGGTTTCGGGACGTGCTAG | 7.58 |
| GACGATAACGGGTTTCGAGACGTGCTA | 2.59 |
| TTAGGTCTCGATCTCGGTTAGTGCTAG | 1.85 |
| GACGGTATCGGACTGGGCACGTGCTAG | -0.358 |
| TTAGGTATCGGAACTGGGTTAGTGCTA | 0.39 |
| TCAAGTCTGGGCTACAACACTGTGCTA | -0.955 |
| TCTGTTTCCTCTTTCTTTGCGTGCTAG | 4.16 |
| AACGGACTGCTTTTCCTGACGTGCTAG | 0.255 |
| TACGGTTTCCTACTGCTGACGTGCTAG | 1.63 |
| AAGTGTGCCCATCTCTGCTCGTGCTAG | 0.000666 |
| TTAAGTTTCGGGTATCGGTTAGTGCTA | 8.33 |
| GACGGTTTCCTTTCCCTGTCGTGCTAG | 6.02 |
| ATATACCTGTATATCTTCAGGTGCTAG | 0.811 |
| GTCAGGGGTCTTGCTCTGTAGTGCTAG | -0.834 |
| TCATATATATTTATGTAACTGTGCTAG | 0.452 |
| TTAGGTATCCTTTTCCTTTTGTGCTAG | 2.11 |
| GACGGACTGGCCTATCGGGACGTGCTA | -0.493 |

Sample 5
Target: ABI1, truncated, D143A, DHFR fusion (Arabidopsis thaliana)
Method: DHFR PCA, deep sequencing
Sample: yeast
Notes: methotrexate growth selection, single substitutions
Added: (+)-ABA 200 µM
Baseline: wild-type fitted maximum
Direction: higher = stronger binding
Starting sequence: PYL1, truncated, DHFR fusion (Arabidopsis thaliana); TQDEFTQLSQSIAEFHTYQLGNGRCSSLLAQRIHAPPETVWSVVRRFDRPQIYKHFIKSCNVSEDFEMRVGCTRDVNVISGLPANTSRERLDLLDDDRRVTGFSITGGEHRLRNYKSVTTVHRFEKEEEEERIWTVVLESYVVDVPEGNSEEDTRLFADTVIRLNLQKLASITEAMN
| Substitution | relative binding score [%] |
| --- | --- |
| S26I | 74.8 |
| R123S | 106 |
| F124D | 107 |
| R98H | 93.4 |
| N149F | 18.6 |
| R155V | 90.8 |
| P50M | 0.185 |
| T39D | 94.1 |
| M68V | 98.9 |
| A170E | 70.6 |
| K116P | -3.33 |
| R99M | 107 |
| Y53R | 66.6 |
| T86R | 95.6 |
| N61P | 58.4 |
| Q19N | 101 |

Some of these lines once more (sample 4):
| Oligonucleotide | log fluorescence [z-score] |
| --- | --- |
| GACGGTATCGGACTGGGCACGTGCTAG | -0.358 |
| TTACAGCTATTTTTAGGATGGTGCTAG | -0.386 |
| TTCTCTTTTATTTTTTTTATGTGCTAG | 1.67 |
| AACGGACTGCTTTTCCTGACGTGCTAG | 0.255 |
| TTAGGTATCCTTTTCCTTTTGTGCTAG | 2.11 |
| AAGTGTGCCCATCTCTGCTCGTGCTAG | 0.000666 |
| GACGGTTTCCTTTCCCTGTCGTGCTAG | 6.02 |
| GACGGTTGCGGGTATCGGGACGTGCTA | -0.333 |
| TTAGGTATCGGAACTGGGTTAGTGCTA | 0.39 |
| GACGGACTGGCCTATCGGGACGTGCTA | -0.493 |
| ATATACCTGTATATCTTCAGGTGCTAG | 0.811 |
| TTAGGTCTCGATCTCGGTTAGTGCTAG | 1.85 |
